Measured values pooled from the literature.
Numbered parts are unrelated; each lists some results of a single study. Substitutions count along the parent as printed.

Study 1 — target: CCND3, cyclin fold, Cln2 fusion (human); technique: yeast growth competition, sequencing; sample: yeast; setting: weak parent motif; reference: not given; direction: higher = stronger binding
Starting sequence: CDC6 docking peptide (human); TLKGRRLVFDNQL; partner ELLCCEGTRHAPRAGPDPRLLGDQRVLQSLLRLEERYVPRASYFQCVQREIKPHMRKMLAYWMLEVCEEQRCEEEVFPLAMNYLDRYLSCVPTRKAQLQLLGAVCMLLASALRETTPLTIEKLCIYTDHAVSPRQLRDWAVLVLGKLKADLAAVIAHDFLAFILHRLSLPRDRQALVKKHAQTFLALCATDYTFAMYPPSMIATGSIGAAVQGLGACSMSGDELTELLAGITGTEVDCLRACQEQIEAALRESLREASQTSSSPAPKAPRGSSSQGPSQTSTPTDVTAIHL
Variant	normalised enrichment score
TLKSRRLVFDNQL [G4S]	0.029
TLKPRRLVFDNQL [G4P]	0.117
TLKDRRLVFDNQL [G4D]	0.244
TDKGRRLVFDNQL [L2D]	0.0493
HLKGRRLVFDNQL [T1H]	0.137
TLKGRRLVQDNQL [F9Q]	0.0826
TLKGTRLVFDNQL [R5T]	0.19
TLKGRRLVFDNGL [Q12G]	0.179
TLVGRRLVFDNQL [K3V]	0.227

Study 2 — technique: RNA Bind-n-Seq; form: RNA; sample: in vitro; tested at: 200 nM; setting: whole 134-nt RNA, ends assumed; with: 150 mM LiCl; reference: input library; direction: higher = stronger binding; each molecule: 7-deaza-guanosine replaces G
Target: Ras GTPase-activating protein-binding protein 1, full length (G3BP1, Homo sapiens, UniProt Q13283)
UniProt Q13283, sequence (whole entry, looked up): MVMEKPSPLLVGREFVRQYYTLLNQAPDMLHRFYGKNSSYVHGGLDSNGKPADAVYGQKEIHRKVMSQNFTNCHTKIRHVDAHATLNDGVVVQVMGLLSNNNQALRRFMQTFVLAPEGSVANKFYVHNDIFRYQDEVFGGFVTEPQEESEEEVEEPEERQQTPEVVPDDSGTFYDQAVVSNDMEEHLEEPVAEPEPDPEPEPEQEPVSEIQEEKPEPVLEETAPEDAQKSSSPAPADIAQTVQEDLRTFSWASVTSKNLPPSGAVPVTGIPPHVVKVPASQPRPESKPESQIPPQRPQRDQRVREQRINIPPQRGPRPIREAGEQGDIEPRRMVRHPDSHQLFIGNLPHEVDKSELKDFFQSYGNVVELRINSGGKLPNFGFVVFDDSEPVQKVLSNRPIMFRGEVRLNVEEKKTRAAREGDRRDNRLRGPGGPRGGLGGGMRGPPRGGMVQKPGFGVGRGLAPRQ
All sequences stand within: GGGAGUUCUACAGUCCGACGAUC … UGGAAUUCUCGGGUGUCAAGG
Oligonucleotide	log2 enrichment
CACAGACAACACGCACCCACACAGACACAGAGGGAAGGGGUUGGAAAGGGGACAGGGUGCACAGCAGGGCGGGGUAGGACCCCAGCCCCU	-0.408
ACCAUGCAGGUGGGCAUCUUUGGGAAGUGGGGCAAGGGGGGGAUAGGGAGGGGGGUAACACUUUGGGAACAGGUGGUCAAAGGUCGUUUC	-0.0308
CCUGUGCUACACAUCGUAUGUACCGAAUCGGGGAAAAAGGGGAAAAAGGGGAAAAAGGGGAAAGUAUUAUGUUACGCCGUUCGGAUCUGC	0.921
CCUGUGCUACACAUCGUAUGUACCGAAUCGGGUUUUUUGGGGUUUUUUGGGUUUUUUGGGGAAAGUAUUAUGUUACGCCGUUCGGAUCUG	0.0218
CCUGUGCUACACAUCGUAUGUACCGAAUCGGGUUUUUGGGUUUUUUUGGGUUUUUUUGGGAAAGUAUUAUGUUACGCCGUUCGGAUCUGC	-0.0224
UCCUGUGCUACACAUCGUAUGUACCGAAUCGGGCCCCCGGGGCCCCCGGGGCCCCCGGGGAAAGUAUUAUGUUACGCCGUUCGGAUCUGC	-1.4
UUUCCAAGAAGUGCACUGAAAAUGACAUCCGAGUCAUGUUCUCUUCGUUUGGACAGAUUGAAGAAUGCCGGAUAUUGCGGGGACCUGAUG	-0.757
CCUCAAGUCCUGUGCUACACAUCGUAUGUACCGAAUCGGUGGUUUGGUUUGGAAAGUAUUAUGUUACGCCGUUCGGAUCUGCACUUCCAG	-0.463
UUCUAUUUCUUUCCUUAAUGUUUUUUUCUUCCCUACUGUUUUAUCCUCCCUUUGCUUUGGAAGGAUAUUGCUGCAUAUCGAGCUAAAGGA	0.794

Study 3 — technique: protein-binding microarray; form: double-stranded DNA, one strand shown; sample: in vitro; tested at: not given; direction: higher = stronger binding
Target: Max dimerization protein 1, bHLH-zipper, MAX partner unstated (MXD1, Homo sapiens, UniProt Q05195, residues 56-136)
Setting: k-mer, scored over probes, only values ≥0.25
Construct (chain): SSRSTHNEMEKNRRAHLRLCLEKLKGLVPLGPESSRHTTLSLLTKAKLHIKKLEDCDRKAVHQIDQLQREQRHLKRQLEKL
Oligonucleotide	E-score
CTCATGCA	0.274
CATGTGAA	0.369
CCCCTTGC	0.261
GCATGGTA	0.43
ACGTGTAG	0.349
ACACGAGT	0.424
ACCCACGA	0.332
AGAACACG	0.388
CCACGCGG	0.469

Mixed results
Molecule	target	assay	test system	conditions	scale	endpoint	value
PhoQ, residues 284 288 289 292 302 303 TTSMTC	PhoP, residues 12 14 15 18 19 SEGLL (Escherichia coli, UniProt P23836)	Sort-seq, refers to: YFP reporter	E. coli	PhoQ-PhoP variant library, with: 10 µM Mg2+	reference: high Mg2+ state, higher = stronger signaling	fold induction	19.7

For quick reference, copied from above (study 1):
Variant	normalised enrichment score
TLKSRRLVFDNQL [G4S]	0.029
TLKGRRLVFDNGL [Q12G]	0.179
TLVGRRLVFDNQL [K3V]	0.227
TLKPRRLVFDNQL [G4P]	0.117
